Results from different studies.
“And” joins repeats or separate records; there may be more than shown. Numbers after ± are the reported error.

For COC(=O)C(c1ccccc1Cl)N1CCC(SCC(=O)c2cccc(OC)c2)C(=CC(=O)O)C1 (mixture of isomers), “deviation from nominal” read 1% (HPLC-MS/MS; feline EDTA plasma; 100 ng/mL, 48 h, 4 °C, storage stability).
The unchanged parent of CC(=O)Nc1ncc(CN2CC[C@H](Oc3cccc([18F])n3)C[C@@H]2C)s1 is reported as > 95% (human, plasma; dose not given, 3 min).
C=C(c1cc(F)c(C(=O)O)c(F)c1)c1cc2c(cc1C)C(C)(C)CCC2(C)C has a blood triglycerides of 50 ± 19.1 mg/dL (Sprague-Dawley rat, male; oral, 100 mg/kg, 1 h, sesame oil vehicle).
With CC(O)c1cc(Cl)ccc1Cn1c(=S)[nH]c(=O)c2[nH]ccc21 (stereo not shown) the exposure ratio was 1.6 (Sprague-Dawley rat, female, plasma; oral, 125 mg/kg/day; baseline: rat over human 15 mg).
The alpha half-life of CC(C)C[C@@H](NC(=O)[C@H](NC(=O)[C@H]1CCCN1)[C@H](C)O)C(=O)N[C@H](Cc1c[nH]cn1)C(=O)N[C@@H](C(=O)N[C@H](Cc1c[nH]cn1)C(=O)N[C@H](CC(N)=O)C(=O)N[C@H](CCCNC(=N)N)C(=O)N[C@H](CCCNC(=N)N)C(=O)N[C@H](CCCNC(=N)N)C(=O)N[C@H](CCCNC(=N)N)C(=O)N[C@H](CCCNC(=N)N)C(N)=O)[C@H](C)O is reported as 3 min and 2.76 min (young Beagle dog, plasma; intravenous, 3 mg/kg single dose).
C#CC1(NC(=O)C(CC(C)(C)F)NC(c2ccc(-c3ccc(S(C)(=O)=O)cc3)cc2)C(F)(F)F)CC1 (stereo not shown): “cysteine adduct formation” 0% (LC-MS UV trace; aqueous buffer; concentration not given, 23 h, pH 8.0, 37 °C, with: cysteine 10 mM).
CC(C)(c1cc(Br)c(O)c(Br)c1)c1cc(Br)c(O)c(Br)c1 — result for “distribution into milk fat”: 46% (whole cow milk; mean of all doses; baseline: total added).
CCCC[C@@H]1NC(=O)[C@@H](NC(=O)[C@H](CCC(=O)O)NC(=O)CNC(=O)CN2CCN(CC(=O)O)CCN(CC(=O)O)CCN(CC(=O)O)CC2)CCCCNC(=O)C[C@@H](C(N)=O)NC(=O)[C@H](C(C)C)NC(=O)[C@@H]2CCCN2C(=O)[C@H](CCCNC(=N)N)NC(=O)CNC(=O)[C@H](Cc2c[nH]c3ccccc23)NC(=O)[C@H](CCCNC(=N)N)NC(=O)[C@@H](Cc2ccccc2)NC(=O)[C@H](Cc2c[nH]cn2)NC(=O)[C@H](CCC(=O)O)NC1=O [gallium-67 labelled] has a lung uptake of 0.15 ± 0.1 %ID/g (normal C57 mice; intravenous, 0.037 MBq, 2 h).
With CCCC[C@H](NC(C)=O)C(=O)N[C@H]1CC(=O)NCCCC[C@@H](C(=O)N[C@@H](C(=O)N2CCC[C@@H]2C(N)=O)C(C)C)NC(=O)[C@H](Cc2c[nH]c3ccccc23)NC(=O)[C@H](CCCN=C(N)N)NC(=O)[C@@H](Cc2ccc3ccccc3c2)NC(=O)[C@@H]2CCCN2C1=O the plasma histamine was 17.5 ng/mL (healthy dogs, plasma; subcutaneous, 2.25 mg/kg per day, day 28 predose, median).
Cc1ccc(C(C)C)cc1.O=C(N=P(c1ccccc1)(c1ccccc1)c1ccccc1)c1ccccn1.[Cl-].[Cl-].[Ru+2] has an AUC total of 54500 ng·h/mL (item: ruthenium; NOD scid mice, plasma; intraperitoneal, 5 mg/kg, after first injection).
Under “relative fluorescence intensity”, Cc1nc(N(C)C)ccc1N is recorded as 3400 RFU/nmol (phosphate buffer with BSA; pH 8, 37 °C, 1% DMSO).
For COc1ccc([C@@H]2CC(=O)c3c(O)cc(O[C@@H]4O[C@H](CO[C@@H]5O[C@@H](C)[C@H](O)[C@@H](O)[C@H]5O)[C@@H](O)[C@H](O)[C@H]4O)cc3O2)cc1O, the relative error was -3.97% (rat plasma; 31.25 ng/mL, -80 °C, long-term storage; baseline: nominal concentration).
For O=C(CCc1ccc(CNC(C(=O)OC2CCCC2)C2CCCCC2)cn1)NO (stereo not shown), the CL/F was 264 L/h (human; 50 mg, single dose, geometric mean).
COc1ccc(/C=C/c2ccc(-c3ccc(C)cn3)nc2)cc1 gave a fluorescence lifetime of 0.6 ns (TCSPC; MeCN).
With CCCCC/C=C/C=C/C(=O)NCC(C)C the relative error was -6.89% (rat plasma; 15 ng/mL, 30 d, -80 °C, long-term storage low QC; baseline: nominal concentration).
For C[C@]12C[C@H](c3ccc(-c4ccc(C(=O)O)cc4)cc3)C3=C4CCC(=O)C=C4CC[C@H]3[C@@H]1CC[C@@]2(O)C(F)(F)C(F)(F)F, “maximal oral bioavailability” read 97% (human liver microsomes; 100 % absorption assumed).
With CN1CCC[C@]1(C)/C=C/S(=O)(=O)NC(=O)Nc1c2c(cc3c1CCC3)CCC2 the Cmax was 30400 ng/mL (human, plasma; oral, 250 mg, single dose, healthy volunteers).
For C[C@H]1Nc2nc(=O)c3[nH]ccc3n2Cc2ccc(Cl)cc21, the exposure ratio was 85 (Sprague-Dawley rat, male, plasma; oral, 125 mg/kg/day; baseline: rat over human 15 mg).
CC(C)c1cnc(-c2cc(Cl)ccc2F)cc1Nc1ccncc1C(=O)NC(CO)CO — result for “patients with related SAE”: 0% (item: pyrexia; human patients; oral, dose not given, grade 5).
The AUC(0-inf) of CC(=O)N[C@H](CSSC[C@H](N)C(=O)O)C(=O)N[C@H](C)C(=O)N[C@H](CCCNC(=N)N)C(=O)N[C@H](CCCNC(=N)N)C(=O)N[C@H](CCCNC(=N)N)C(=O)N[C@H](C)C(=O)N[C@H](CCCNC(=N)N)C(N)=O is reported as 620 ng·h/mL (male human, plasma; intravenous, 5 mg, single dose, healthy volunteers).
CSCOC1C(=O)C2(C)C(OCSC)CC3OCC3(OC(C)=O)C2C(OC(=O)c2ccccc2)C2(O)CC(OC(=O)C(O)C(C=C(C)C)NC(=O)OC(C)(C)C)C(C)=C1C2(C)C (stereo not shown) has an AUC(0-t) of 903 ng·h/mL (female Sprague-Dawley rat, plasma; intravenous, 4 mg/kg).
CC12CC(c3ccc(S(C)(=O)=O)cc3)C3=C4CCC(=O)C=C4CCC3C1CCC2(O)C(F)(F)C(F)(F)F (stereo not shown) — result for “total recovery of radioactivity”: 86.6 ± 2.81% (human, urine and feces; oral, 5 mg, 21 days, [14C]-labelled, single dose; baseline: dose).
With O=C([O-])CN1CCN(CC(=O)[O-])CCN(CC(=O)NC[C@H]2CC[C@H](C(=O)N[C@H](Cc3cnc4ccccc4c3)C(=O)NCCCC[C@H](NC(=O)N[C@@H](CCC(=O)O)C(=O)O)C(=O)O)CC2)CCN(CC(=O)[O-])CC1.[64Cu+2] the absorbed dose was 0.142 mGy/MBq (PET/CT dosimetry OLINDA/EXM; healthy volunteers, salivary glands; up to 24 h post-injection).
CC(C)(O)c1ncc([S@](N)(=O)=NC(=O)Nc2c3c(cc4c2CCC4)CCC3)s1 has an AUC(0-t) of 3110 ng·h/mL (human, plasma; oral, 3 mg, single dose, fasted, healthy volunteers).
COC(=O)c1ccc(-c2cn(Cc3cc(Cl)ccc3O[11CH3])nn2)cc1: “distribution volume VT” 0.588 mL/cm³ (PET, 1TCM; rhesus macaque, hypothalamus; dose not given).
The tracer uptake of COc1cc2c(cc1OC)CN(CCCCn1ccc3cc(OCC[18F])ccc31)C2 is reported as 34.1 %ID/g (male CD-1 mouse, pancreas; intravenous, 280 kBq, 30 min).
For Cc1ccc(OCC(=O)N(Cc2cccs2)c2ccn[nH]2)cc1, the AUC(0-t) was 1.64 ng·h/mL (male Sprague-Dawley rat, plasma; oral, 10 mg/kg, single dose).
Under “treatment-emergent adverse event incidence”, Cn1c(=O)oc2ccc(-c3ccc(CC(C#N)NC(=O)C4CNCCCO4)c(F)c3)cc21 (stereo not shown) is recorded as 7.4% (item: bacterial test positive; human volunteers; oral).

Excerpt of the above:
For COc1ccc([C@@H]2CC(=O)c3c(O)cc(O[C@@H]4O[C@H](CO[C@@H]5O[C@@H](C)[C@H](O)[C@@H](O)[C@H]5O)[C@@H](O)[C@H](O)[C@H]4O)cc3O2)cc1O, the relative error was -3.97% (rat plasma; 31.25 ng/mL, -80 °C, long-term storage; baseline: nominal concentration).
C=C(c1cc(F)c(C(=O)O)c(F)c1)c1cc2c(cc1C)C(C)(C)CCC2(C)C has a blood triglycerides of 50 ± 19.1 mg/dL (Sprague-Dawley rat, male; oral, 100 mg/kg, 1 h, sesame oil vehicle).
